# Published values of several laboratories.
# Values joined by “and” are separate records of one study, mostly repeats; a detail may differ. Numbers after ± are the reported error.
# CYP3A7: Cytochrome P450 3A7 (CYP3A7, Homo sapiens, UniProt P24462)
SMILES,tested on,assay,system,setting,how to read,measurement,value
O=C(O)C(F)(F)C(F)(F)C(F)(F)C(F)(F)C(F)(F)C(F)(F)C(F)(F)F,"SLC22A12 (Homo sapiens, UniProt Q96S37)","uptake, substrate","HEK293 cells stably expressing SLC22A12, HBSS with HEPES",pH 7.4,,CLint,1.85 ± 0.4 µL/min/mg
CC(C)=CC1C(C(=O)OC(C#N)c2cccc(Oc3ccccc3)c2)C1(C)C (stereo not drawn),human microsomal CES2,IVIVE from expressed enzymes,"human, liver, in vivo scaled",age-specific,,enzyme contribution to CLint,0.15%
O=S(=O)(O)C(F)(F)C(F)(F)C(F)(F)C(F)(F)C(F)(F)C(F)(F)C(F)(F)C(F)(F)F,CYP3A7,"enzyme activity, inhibitor",,"10 µM, with: dibenzylfluorescein 0.15 µM",reference: DMSO,inhibition,35.1 ± 2.99%
CC1(C)C(C=C(Cl)Cl)C1C(=O)OC(C#N)c1ccc(F)c(Oc2ccccc2)c1 (stereo not drawn),human microsomal CES2,IVIVE from expressed enzymes,"human, 6 months old, expressed human CES2",0.1 µM,reference: total hepatic CLint in vivo,relative enzyme contribution,0.21%
O=C(O)COc1nn(Cc2ccccc2)c2ccccc12,"ABCB11 (Homo sapiens, UniProt O95342)","bile salt transport, inhibitor",,,,IC50,> 100 µM
Cc1cc2nc3c(=O)[nH]c(=O)nc-3n(C[C@H](O)[C@H](O)[C@H](O)COP(=O)(O)O)c2cc1C,"nfsB (Escherichia coli K-12, UniProt P38489, K14Q)","bound cofactor redox, redox titration",,"pH 7.0, 25 °C, anaerobic",,midpoint potential,-195 ± 5 mV
CC1Cc2cc3c(cc2C(c2ccc(N)cc2)=NN1)OCO3 (stereo not drawn),Plasmodium falciparum,,GB4,,,IC50,10 µM
CCCC[C@H](NC(C)=O)C(=O)N[C@@H](CO)C(=O)N[C@H](C(=O)N1CCC[C@H]1C(=O)N[C@@H](C)C(=O)N[C@@H](CCCNC(=N)N)C(=O)N[C@@H](CCCNC(=N)N)C(=O)N[C@@H](CCCNC(=N)N)C(=O)N[C@@H](CC(C)C)C(=O)N[C@@H](CCCC)C(=O)N[C@@H](CCCNC(=N)N)C(=O)N[C@@H](CC(=O)O)C(=O)N[C@@H](Cc1ccccc1)C(=O)N[C@@H](CCCCN)C(=O)N[C@@H](CCCNC(=N)N)C(=O)N[C@@H](CC(C)C)C(=O)N[C@@H](CCC(N)=O)C(N)=O)[C@@H](C)O,proteinase K,LC-MS,,"25 µM, 102.4 min, pH 7.4",,remaining peptide,0%
O=C(O)C(F)(F)C(F)(F)C(F)(F)C(F)(F)C(F)(F)C(F)(F)C(F)(F)F,CYP3A7,type I binding spectrum,,"pH 7.4, second binding event",,Hill coefficient,1.48
OC(CN1CCC(Cc2ccc(F)cc2)CC1)c1ccc(Cl)cc1 (stereo not drawn),Plasmodium falciparum,,7G8,,,IC50,0.398 µM
O=S(=O)(NCCNC/C=C/c1ccc(Br)cc1)c1cccc2cnccc12,PKA,inhibitor,mouse zygotes,"20 µM, injection, hCG, 120 h post, early embryonic development",,dead embryos,26.3% and 30% and 17.6%
CC1(C)[C@H](C(=O)OCc2cccc(Oc3ccccc3)c2)[C@@H]1C=C(Cl)Cl,human cytosolic CES1,IVIVE from expressed enzymes,"human, 6 months old, expressed human CES1",0.1 µM,reference: total hepatic CLint in vivo,relative enzyme contribution,29.5%
COc1ccc2cc1Oc1ccc(cc1)C[C@H]1c3cc(c(OC)cc3CCN1C)Oc1c(OC)c(OC)cc3c1[C@H](C2)N(C)CC3,"SLC22A8 (Homo sapiens, UniProt Q8TCC7)","transport, inhibitor",,"10 µM, with: ES",,inhibition,20%
Cn1nccc1[C@]1(CNC(=O)c2ccc(F)c(F)c2-c2ccc(C(F)(F)F)cc2)NC(=O)NC1=O,"SCN5A (Homo sapiens, UniProt Q14524)",inhibitor,human cells,,,highest concentration without inhibition,> 10 µM
CC(=O)O[C@@H]1C[C@@]23C[C@@]24CC[C@H](O[C@@H]2OC[C@@H](O)[C@H](O)[C@H]2O)C(C)(C)[C@@H]4CC[C@H]3[C@]2(C)C[C@@H]3O[C@@]4(C[C@@H](C)[C@@H]3[C@@]12C)OC[C@@]1(C)O[C@@H]41,"Nr1i2 (Mus musculus, UniProt O54915)","luciferase reporter, activator",HepG2 transfected with mouse PXR,50 µM,reference: vehicle,reporter gene activity,increased
CC(C)CC(=O)OC[C@H]1O[C@@](C#N)(c2ccc3c(N)ncnn23)[C@H](O)[C@@H]1O,"ABCB1 (Homo sapiens, UniProt P08183)",,Caco-2,"0.9 µM, with: zosuquidar 25 µM",,Papp B to A,0.471 ×10⁻⁶ cm/s
CC1(C)C(/C=C(\Cl)C(F)(F)F)C1C(=O)OC(C#N)c1cccc(Oc2ccccc2)c1 (stereo not drawn),human cytosolic CES1,IVIVE from expressed enzymes,"human, liver, in vivo scaled",age-specific,,enzyme contribution to CLint,38.8%
CC(=O)N[C@@H](CC(C)C)C(=O)N[C@H](C(=O)N[C@@H](Cc1ccccc1)C(=O)N[C@@]1(C)CCCC=CCCC[C@@](C)(C(=O)N[C@@H](CCC(N)=O)C(=O)N[C@@H](CC(C)C)C(=O)N[C@H](C(=O)N[C@@H](CO)C(N)=O)[C@@H](C)O)NC(=O)[C@H](Cc2c[nH]c3ccccc23)NC(=O)[C@H](Cc2ccc(O)cc2)NC(=O)[C@H](CCC(=O)O)NC1=O)[C@@H](C)O,"Proteinase K (PROK, Engyodontium album, UniProt P06873)",proteolytic stability,,120 min,,remaining intact peptide,99%
